{"data": "Assay results from different studies", "note": "Every numbered part comes from another study and shows a few of its results, in no order. Substitutions count along the parent as printed."}
{"data": "Sample 1", "target": "ABI1, truncated, D143A, DHFR fusion (Arabidopsis thaliana)", "method": "DHFR PCA, deep sequencing", "sample": "yeast", "setting": "methotrexate growth selection, single substitutions", "added": "(+)-ABA 0.0091 µM", "relative to": "wild-type fitted maximum", "direction": "higher = stronger binding", "starting sequence": "PYL1, truncated, DHFR fusion (Arabidopsis thaliana); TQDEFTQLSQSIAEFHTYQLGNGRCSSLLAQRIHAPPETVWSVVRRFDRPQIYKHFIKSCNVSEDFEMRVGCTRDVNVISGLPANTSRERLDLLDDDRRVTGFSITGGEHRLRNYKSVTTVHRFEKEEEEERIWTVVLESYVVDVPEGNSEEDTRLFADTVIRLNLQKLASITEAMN; partner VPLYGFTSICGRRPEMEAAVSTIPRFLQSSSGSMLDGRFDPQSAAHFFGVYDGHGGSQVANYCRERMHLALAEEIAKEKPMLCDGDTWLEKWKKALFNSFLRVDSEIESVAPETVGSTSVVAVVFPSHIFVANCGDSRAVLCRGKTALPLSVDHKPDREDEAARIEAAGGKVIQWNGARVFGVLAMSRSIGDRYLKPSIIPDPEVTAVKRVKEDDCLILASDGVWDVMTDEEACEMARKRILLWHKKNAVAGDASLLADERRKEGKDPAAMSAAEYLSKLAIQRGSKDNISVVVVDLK"}
{"Substitution": "L164A", "relative binding score [%]": 2.3}
{"Substitution": "N177Q", "relative binding score [%]": 32.6}
{"Substitution": "V143C", "relative binding score [%]": 43.7}
{"Substitution": "G108R", "relative binding score [%]": -3.57}
{"Substitution": "T1C", "relative binding score [%]": 28.9}
{"Substitution": "V62C", "relative binding score [%]": -4.48}
{"Substitution": "G148D", "relative binding score [%]": 3.32}
{"Substitution": "T1E", "relative binding score [%]": 30.8}
{"Substitution": "I79F", "relative binding score [%]": 26}
{"Substitution": "L138Y", "relative binding score [%]": -1.9}
{"Substitution": "W41S", "relative binding score [%]": 0.79}
{"Substitution": "R155Y", "relative binding score [%]": 0.404}
{"Substitution": "F124V", "relative binding score [%]": 31.7}
{"Substitution": "L169Y", "relative binding score [%]": -1.86}
{"Substitution": "E38I", "relative binding score [%]": 2.92}
{"Substitution": "L94R", "relative binding score [%]": -5.81}
{"Substitution": "L93E", "relative binding score [%]": -4.16}
{"Substitution": "M176T", "relative binding score [%]": 9.01}
{"data": "Sample 2", "target": "RNA binding protein fox-1 homolog 2, RRM domain, GST-SBP tag (RBFOX2, Homo sapiens, UniProt O43251-10, residues 100-194)", "method": "RNA Bind-n-Seq", "molecule type": "RNA", "sample": "in vitro", "concentration": "365 nM", "setting": "natural RNA segment, single round, ends assumed", "relative to": "no-protein control", "direction": "higher = stronger binding", "shared flanks, not repeated": "GGGAGUUCUACAGUCCGACGAUC … UGGAAUUCUCGGGUGCCAA", "Target sequence (chain)": "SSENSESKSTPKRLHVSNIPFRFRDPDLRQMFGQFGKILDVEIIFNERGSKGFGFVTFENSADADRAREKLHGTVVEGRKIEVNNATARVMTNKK"}
{"Oligonucleotide": "UAAGCCUUCUGCUUAUUCUCCUAGCACAAUGCAAGGAAAUUUUACUUUUUAAAUCUUAGAGAGAUUCCUACAGAUCUAUAAAGCAUGGAGCCAUUCCUGUAGUGAAGGGG", "RBNS enrichment (R)": 0.797}
{"Oligonucleotide": "UAGAGUAGUUUAGGGUCCCUGACUCGAACCCUCACUGUGCCUUCUGCCGGGGAGGAGGGGCUCCUGGGCCUGCUUCCUCCAGGCGCUCUAGAUGCACAAUCCAAUACAGU", "RBNS enrichment (R)": 0.2}
{"Oligonucleotide": "AACAAGUAAAUAUAUAUGGUCAUAUACAUAUUGUAUAUAUAUUCAUAUACAAACAUGUAUGUAUACAUGACCUUAAUGGAUCAUAGAAUUGCAGUCAUUUGGUGCUCUGC", "RBNS enrichment (R)": 0.382}
{"Oligonucleotide": "AGGAAACGAAUGACUAAUAGCAUUAUGAGUCUUAUGUGAAGACAACACUAUUCUAACACAGGAGAUAAUGUACUUGGUACUGUUUAUUCAACUGGGGGAAAAUAAAACUU", "RBNS enrichment (R)": 0.7}
{"Oligonucleotide": "CUCAGAGAGUGUCGGUGGUUAAAGUAAGAGAACAUUGGUUGGUCAGCAACGUGAUCUGUAACUUGAUGUGGAGACGGGUGGUAGGACCCUGCUGAGGUUCAGAACUUUGA", "RBNS enrichment (R)": 1.68}
{"Oligonucleotide": "UAACUGUAUAAAAUGUUCAUUUUACACAAUAUUUAAUUAAAGUAUUUCUUGUCUGUGAAUUUCACUUUUGGUAGUUUUAUCUGUUUUGACUAUUAAAAUGACUGACAAAU", "RBNS enrichment (R)": 0.445}
{"Oligonucleotide": "ACUGGGCCGGCCACAGUCUGGACCCGCACGUCCUGUUCAAAAGCAGACUCGGGAACUGCCUGAAUGUGGUUUGGGACACGAGACCUCAUCAUAUUGAUGAGCGAACAAAC", "RBNS enrichment (R)": 1.04}
{"Oligonucleotide": "AGGGAAUAUUUUAACUCGCAAGGUGAUGUUCUGUACAAAACGUGGUAUAUGUUACCCACAGUCCAUUUCAGUUAUUCCCACAAGUCAGGUCCAGAUAAAUGAGGGUUAUC", "RBNS enrichment (R)": 0.976}
{"Oligonucleotide": "GGAGCAUUCUGGGAUGGUUUUGUUUCUCCCUUUUUGUGCCGAAUGGAGAAUAAAAUACUUCAAACGACUUGCAAAUAGAUAUUAUUCUUGCGUUGCAAGAACUGUAAGUC", "RBNS enrichment (R)": 0.399}
{"Oligonucleotide": "UUCUGCUGGGCAGAACACAUGGGUUAAAUCUGUGUAGAGAGUUUUCCUCAUCCUCCAUCCACAAGUGUCCUUCCAAGCAAGGUCCCCCUCUAGACAGUAGACAAGGACCC", "RBNS enrichment (R)": 0.222}
{"Oligonucleotide": "CAUGCGUAAACAUUGCUGAAUAUUGUUUCACACAAAAAUUGAAACACUGUUUCUUAAUUUUAUUGUUGUAUUCAUAUAUGUAGGAUUUGAAAUAUUGUGAUGCCCACCAC", "RBNS enrichment (R)": 0.343}
{"Oligonucleotide": "ACCAGGCAGGGAGCUUCCCCAGGAUAGUGUGGUGGAGUCAGGACUCACUCCAUCCUGCACUUUACCCACAGGACACCUGGAGGGUCCCCCAGCCCUGCUUGCUUUUGUGA", "RBNS enrichment (R)": 0.917}
{"data": "Sample 3", "target": "CRIPT, C-terminal peptide", "method": "DHFR complementation, deep sequencing", "sample": "yeast", "setting": "single substitutions, model-inferred values", "relative to": "wild type", "direction": "higher = weaker binding", "starting sequence": "ERBIN, PDZ domain 1 (human); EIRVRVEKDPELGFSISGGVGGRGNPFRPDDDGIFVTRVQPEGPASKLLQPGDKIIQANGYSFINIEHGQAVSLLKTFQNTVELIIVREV; partner TKNYKQTSV"}
{"Substitution": "A45L", "binding free energy change": "1.19 kcal/mol"}
{"Substitution": "D53F", "binding free energy change": "0.335 kcal/mol"}
{"Substitution": "R28D", "binding free energy change": "0.105 kcal/mol"}
{"Substitution": "K76R", "binding free energy change": "-0.254 kcal/mol"}
{"Substitution": "T37Y", "binding free energy change": "0.658 kcal/mol"}
{"Substitution": "I66T", "binding free energy change": "0.263 kcal/mol"}
{"Substitution": "D30F", "binding free energy change": "0.344 kcal/mol"}
{"Substitution": "F78P", "binding free energy change": "0.0801 kcal/mol"}
{"Substitution": "P44G", "binding free energy change": "0.503 kcal/mol"}
{"Substitution": "F27C", "binding free energy change": "0.731 kcal/mol"}
{"Substitution": "Q57P", "binding free energy change": "0.867 kcal/mol"}
{"Substitution": "Q79E", "binding free energy change": "-0.00312 kcal/mol"}
{"Substitution": "V36C", "binding free energy change": "0.167 kcal/mol"}
{"Substitution": "P10C", "binding free energy change": "-0.394 kcal/mol"}
{"Substitution": "R5H", "binding free energy change": "0.0982 kcal/mol"}
{"Substitution": "T37L", "binding free energy change": "0.976 kcal/mol"}
{"Substitution": "I34L", "binding free energy change": "0.536 kcal/mol"}
{"Substitution": "I2H", "binding free energy change": "0.117 kcal/mol"}
{"data": "Sample 4", "target": "Histone acetyltransferase KAT6A, both winged helices, GST fusion (KAT6A, Homo sapiens, UniProt Q92794, residues 1-181)", "method": "protein binding microarray", "molecule type": "double-stranded DNA, one strand shown", "sample": "in vitro", "concentration": "not given", "setting": "8-mer, flanks averaged, mean of 2 arrays, mostly near background", "relative to": "not given", "direction": "higher = stronger binding", "Target sequence (chain)": "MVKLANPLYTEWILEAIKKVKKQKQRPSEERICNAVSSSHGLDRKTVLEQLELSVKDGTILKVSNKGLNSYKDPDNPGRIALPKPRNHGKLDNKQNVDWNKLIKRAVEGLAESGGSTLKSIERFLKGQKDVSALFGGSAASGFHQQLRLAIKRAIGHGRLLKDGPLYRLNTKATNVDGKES"}
{"Oligonucleotide": "CAATAGAC", "E-score": -0.105}
{"Oligonucleotide": "GAATAAGA", "E-score": -0.027}
{"Oligonucleotide": "GCGTCACC", "E-score": 0.156}
{"Oligonucleotide": "CGATATCG", "E-score": 0.177}
{"Oligonucleotide": "GACGCCCC", "E-score": 0.057}
{"Oligonucleotide": "ACTGTAAG", "E-score": -0.0213}
{"Oligonucleotide": "ATTTTTAG", "E-score": -0.0379}
{"Oligonucleotide": "TAATACAA", "E-score": -0.0836}
{"Oligonucleotide": "GAACAGTC", "E-score": -0.0341}
{"Oligonucleotide": "CCGACGTC", "E-score": 0.165}
{"Oligonucleotide": "CACCTGAG", "E-score": -0.155}
{"Oligonucleotide": "GATAAACC", "E-score": 0.121}
{"Oligonucleotide": "ACTTAGCC", "E-score": -0.0318}
{"Oligonucleotide": "ACCGACAC", "E-score": 0.134}
{"Oligonucleotide": "ACCCCTGG", "E-score": -0.233}
{"Oligonucleotide": "CCACCCTA", "E-score": -0.201}
{"Oligonucleotide": "AGTTGGAG", "E-score": -0.211}
{"Oligonucleotide": "GAATTACA", "E-score": -0.0291}
{"Oligonucleotide": "CTCGAAAA", "E-score": -0.087}
{"data": "Sample 5", "target": "CCND2, cyclin fold, Cln2 fusion (human)", "method": "yeast growth competition, sequencing", "sample": "yeast", "setting": "weak parent motif", "relative to": "not given", "direction": "higher = stronger binding", "starting sequence": "PKMYT1 docking peptide (human); SFEPRNLLSLFED; partner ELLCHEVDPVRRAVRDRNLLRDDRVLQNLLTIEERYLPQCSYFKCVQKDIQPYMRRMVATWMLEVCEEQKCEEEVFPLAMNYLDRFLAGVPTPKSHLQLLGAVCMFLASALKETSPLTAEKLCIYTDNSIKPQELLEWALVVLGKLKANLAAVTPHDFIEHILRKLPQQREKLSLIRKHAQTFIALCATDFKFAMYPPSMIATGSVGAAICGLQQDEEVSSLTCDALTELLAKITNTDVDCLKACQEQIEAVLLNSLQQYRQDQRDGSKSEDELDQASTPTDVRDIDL"}
{"Substitution": "F11L", "normalised enrichment score": 0.11}
{"Substitution": "E12C", "normalised enrichment score": 0.15}
{"Substitution": "F2L", "normalised enrichment score": 0.0354}
{"Substitution": "L7S", "normalised enrichment score": 0.148}
{"Substitution": "E12K", "normalised enrichment score": 0.107}
{"Substitution": "E12P", "normalised enrichment score": 0.16}
{"Substitution": "L10H", "normalised enrichment score": 0.163}
{"Substitution": "E3R", "normalised enrichment score": -0.578}
{"Substitution": "S9K", "normalised enrichment score": -0.0521}
{"Substitution": "L8I", "normalised enrichment score": -0.0839}
{"Substitution": "F11K", "normalised enrichment score": 0.341}
{"Substitution": "L8H", "normalised enrichment score": 0.142}
{"Substitution": "P4Q", "normalised enrichment score": 0.381}
{"Substitution": "N6D", "normalised enrichment score": -0.0619}
{"Substitution": "S9A", "normalised enrichment score": 0.391}
{"Substitution": "R5P", "normalised enrichment score": 0.139}
{"Substitution": "E12Y", "normalised enrichment score": 0.0479}
{"Substitution": "S1E", "normalised enrichment score": -0.0277}
{"Substitution": "E12H", "normalised enrichment score": 0.262}
{"Substitution": "S9R", "normalised enrichment score": 0.259}
{"Substitution": "P4L", "normalised enrichment score": 0.0329}
{"Substitution": "L10A", "normalised enrichment score": -0.416}
{"Substitution": "E3Q", "normalised enrichment score": 0.191}
{"Substitution": "F2W", "normalised enrichment score": 0.225}
{"Substitution": "S9D", "normalised enrichment score": -0.0865}
{"note": "For quick reference, copied from above (sample 4):"}
{"Oligonucleotide": "CCGACGTC", "E-score": 0.165}
{"Oligonucleotide": "CACCTGAG", "E-score": -0.155}
{"Oligonucleotide": "GATAAACC", "E-score": 0.121}
{"Oligonucleotide": "ACTTAGCC", "E-score": -0.0318}
{"Oligonucleotide": "ACCGACAC", "E-score": 0.134}
{"Oligonucleotide": "ACCCCTGG", "E-score": -0.233}
{"Oligonucleotide": "CCACCCTA", "E-score": -0.201}
{"Oligonucleotide": "AGTTGGAG", "E-score": -0.211}
